# Measurements from different studies.
# Several values in a cell are separate wells, animals, samples, runs or records. ± marks the error that the study gave.
# Cell line: RAW264.7
SMILES,test,conditions,IC50
Oc1cc(O)cc(/C=C/c2ccccc2)c1,"NO release, inhibitor",LPS-stimulated,6.9 µg/mL
CCCCCC1C(=O)C(C(=O)CC(C)=O)CC1CC(=O)OC (centres unmarked),"cell viability, CCK-8","48 h, together with: LPS 1 µg/mL",2.45 ± 0.2 µM
O=C(CCNNC(=O)c1ccncc1)NCc1ccccc1,"NO release, inhibitor, Griess",LPS-stimulated,> 200 µg/mL
Cc1ccccc1-c1cc2ccccc2[nH]1,"NO release, inhibitor, Griess",LPS-stimulated,2.8 µM
CCOC(=O)C1CCC(C(=O)CC(C)=O)C1=O (centres unmarked),"cell viability, CCK-8","48 h, together with: LPS 1 µg/mL",1.94 ± 0.13 µM
CC(C)/C=C/c1c(O)cc(/C=C/c2ccc(O)cc2)cc1O,"NO release, inhibitor",LPS-stimulated,6 µg/mL
Cc1ccc(C)c(NC(=O)CSc2nnc(-c3ccc(NC(=O)c4cccnc4)cc3)n2N)c1,"TNF-α release, inhibitor, ELISA",LPS-stimulated,4.3 µM
C(=NOCc1ccccc1)c1c(-c2ccccc2)[nH]c2ccccc12,"NO release, inhibitor, Griess",LPS-stimulated,34.6 µM
NCC1CC(=S)N2CC3CCCN4CCCC(C34)C2C1 (centres unmarked),"osteoclast differentiation, TRAP activity","3 d, together with: RANKL and CSF-1",2.41 µM
CC(C)=CCc1c(O)cc(/C=C/c2ccc(O)cc2)cc1O,"NO release, inhibitor",LPS-stimulated,4.1 µg/mL
CC(=O)c1ccc(NC(=O)CSc2nnc(-c3ccc(NC(=O)c4cccnc4)cc3)o2)cc1,"NO release, inhibitor, Griess",LPS-stimulated,11.4 µM
Cc1c(-c2ccc(O)cc2)nn(-c2ccc(O)cc2)c1-c1ccc(OCCN2CCCCC2)cc1,"TNF-alpha production, inhibitor",together with: CpG-DNA,2.11 ± 0.64 µM
COc1cc(O)cc(/C=C/c2ccccc2)c1,"NO release, inhibitor",LPS-stimulated,8.5 µg/mL
CC(=O)CC(=O)C1CCC(C(C)=O)C1=O (centres unmarked),"cell viability, CCK-8","48 h, together with: LPS 1 µg/mL",1.73 ± 0.15 µM
Oc1cccc(CCc2ccccc2)c1,"NO release, inhibitor",LPS-stimulated,19.5 µg/mL
Nn1c(SCC(=O)Nc2ccccc2Cl)nnc1-c1ccc(NC(=O)c2cccnc2)cc1,"TNF-α release, inhibitor, ELISA",LPS-stimulated,35.4 µM
c1ccc(-c2cc3ccccc3[nH]2)cc1,"NO release, inhibitor, Griess",LPS-stimulated,< 50 µM and 38.1 µM
CC(C)=CCC/C(C)=C/Cc1c(O)cc(/C=C/c2ccc(O)cc2O)cc1O,"NO release, inhibitor",LPS-stimulated,4.8 µg/mL
CC(C)(C)OC(=O)n1c(-c2ccccc2)cc2ccccc21,"NO release, inhibitor, Griess",LPS-stimulated,34.2 µM
Cc1ccc(-c2cc(C(F)(F)F)nn2-c2ccc(S(N)(=O)=O)cc2)cc1,"NO release, inhibitor, Griess",LPS-stimulated,16.5 µM
O=c1c(O)c(-c2ccccc2)oc2cc3ccccc3cc12,"cytotoxicity, MTT","visible light, added BSA",22.4 µM and 22 µM
Nn1c(SCC(=O)Nc2ccc(F)cc2)nnc1-c1ccc(NC(=O)c2cccnc2)cc1,"reactive oxygen species, inhibitor, fluorescence",LPS-stimulated,27.9 µM
CC1(C)C=Cc2c(O)cc(/C=C/c3ccc(O)cc3)cc2O1,"NO release, inhibitor",LPS-stimulated,7 µg/mL
O=C(CSc1nnc(-c2ccc(NC(=O)c3cccnc3)cc2)o1)Nc1ccc(F)cc1,"NO release, inhibitor, Griess",LPS-stimulated,> 100 µM
CON=Cc1c(-c2ccccc2)[nH]c2ccccc12,"NO release, inhibitor, Griess",LPS-stimulated,22.5 µM
O=C(Nc1ccc(-c2n[nH]c(=S)n2N=Cc2c[nH]c3ccccc23)cc1)c1cccnc1,"NO release, inhibitor, Griess",LPS-stimulated,2.19 µM
COc1cc(/C=C/c2ccccc2)cc(OC)c1,"NO release, inhibitor",LPS-stimulated,> 25 µg/mL
O=C(CSc1nnc(-c2ccc(NC(=O)c3cccnc3)cc2)o1)Nc1ccccc1Cl,"TNF-α release, inhibitor, ELISA",LPS-stimulated,10.3 µM
CC1(C)[C@@H](OC(=O)CCC(=O)O)CC[C@]2(C)[C@H]3C(=O)C=C4[C@@H]5C[C@@](C)(C(=O)O)CC[C@]5(C)CC[C@@]4(C)[C@]3(C)CC[C@@H]12,"NO release, inhibitor, Griess",LPS-stimulated,11.4 µM

# Repeated from above:
SMILES,test,conditions,IC50
Cc1c(-c2ccc(O)cc2)nn(-c2ccc(O)cc2)c1-c1ccc(OCCN2CCCCC2)cc1,"TNF-alpha production, inhibitor",together with: CpG-DNA,2.11 ± 0.64 µM
COc1cc(O)cc(/C=C/c2ccccc2)c1,"NO release, inhibitor",LPS-stimulated,8.5 µg/mL
CC(=O)CC(=O)C1CCC(C(C)=O)C1=O (centres unmarked),"cell viability, CCK-8","48 h, together with: LPS 1 µg/mL",1.73 ± 0.15 µM
